Measurements gathered from unrelated publications.
Parts stem from different laboratories: compare values within a part only.

Series 1
Target: Histone acetyltransferase KAT6A, winged helix 1, GST fusion (KAT6A, Homo sapiens, UniProt Q92794, residues 1-85)
Method: protein binding microarray
Form: double-stranded DNA, one strand shown
Matrix: in vitro
Tested at: not given
Notes: 8-mer, flanks averaged, mean of 2 arrays, mostly near background
Relative to: not given
Reading: higher = stronger binding
Residues (chain): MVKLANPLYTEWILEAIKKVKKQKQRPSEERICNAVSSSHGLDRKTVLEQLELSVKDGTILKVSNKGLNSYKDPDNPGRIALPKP
Strand | E-score
AAGGGTTC | -0.118
ATATGGAA | -0.17
GGCAAGCA | -0.0254
CCGTTCAC | 0.0943
ATTAGGTG | -0.138
CTGTGTTC | -0.307
ATTCTAGG | -0.232
CCGGTGCC | 0.29
TATCAGGA | -0.192
GCATCTTA | -0.0563
AGCATATG | -0.0652
AGATTGGA | -0.353
CAAGCTGA | -0.219
ATTTACGG | 0.225
GAGTTGAC | -0.121
CGAAACAA | -0.123
GTCCTGGA | -0.164
ACAAACAT | -0.114
ACCAGACT | -0.31
AATGATCT | -0.0827
ACAATCGC | 0.185
GGCGGCCC | 0.415
AAAGATTA | -0.0425
CATCCGCG | 0.3
AAGGCTTG | -0.204

Series 2
Target: RNA binding protein fox-1 homolog 2, RRM domain, GST-SBP tag (RBFOX2, Homo sapiens, UniProt O43251-10, residues 100-194)
Method: RNA Bind-n-Seq
Form: RNA
Matrix: in vitro
Tested at: 365 nM
Notes: natural RNA segment, single round, ends assumed
Relative to: no-protein control
Reading: higher = stronger binding
Construct (chain): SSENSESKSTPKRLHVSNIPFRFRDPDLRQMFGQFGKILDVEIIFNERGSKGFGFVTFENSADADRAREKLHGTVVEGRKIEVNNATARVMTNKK
Strand | RBNS enrichment (R)
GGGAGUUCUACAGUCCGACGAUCACUGGCCUCUUUUCAUUUCACUAGUGGCCGAGACACCCUCUCUGGCAUUUAUCACUGUUGGCCGGUGUGAUGAGUAUAGAGUGCCACCCAAGGCACCAGUCACACAAGCUUGGAAUUCUCGGGUGCCAA | 0.438
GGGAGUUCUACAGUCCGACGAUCGAAAGCUUCCCUGCAAUCUUGGGGUUUGGCUUUAGUUUUCUUUUCCUUGAUUUCUCAGUAGGUGCUAGAAUCCAGUUCACACCCUUCACUGUGCGUGCAGACACACUGACUGGAAUUCUCGGGUGCCAA | 0.359
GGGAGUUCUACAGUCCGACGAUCUUACUCCAGCUAACGCUUUGAUUCCAACACUAGCAUUUGUCACGUUAGGACGAACUGAAACGGUACAAACUGGUUAACACUACAGCGCCUUUUGCACAAAUGCUUUAGAUUGGAAUUCUCGGGUGCCAA | 0.299
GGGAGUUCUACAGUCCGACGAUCUGCAUGAGCCAUGAAUUGGGCUAGAGGAAGCCUUGUCAUCAGAUACUGACCAUAGCAUGUGACACUCAGACUUCUCAGCUCCUGUGCAUCCCAGUGUAGGCUCUGAGGCCUGGAAUUCUCGGGUGCCAA | 11.1
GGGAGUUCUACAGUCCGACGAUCUGAGGGAUCCGGGGGUUCAAUUUAUUUUGAUUUUUUUUUUUGGUUGUUUAUUUUUGCUUGUUAUGUUAAGCAAAAAUCCUGCAAUGAAAGGUACUAUAUUUGCCAGACUCUGGAAUUCUCGGGUGCCAA | 1.45
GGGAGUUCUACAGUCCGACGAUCACCUGCCCAGGCAGCCCCUCGUCACCUACUCCCCGAAGUUACCAGCUCAGCUCGAGUCUUCAGGGCUGGGCUCCUAGGCUGCCCAUCCUACUUCUACCCUCACUGGCCUCUGGAAUUCUCGGGUGCCAA | 0.355
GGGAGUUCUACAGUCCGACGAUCUCAGUUUUCCUCUGAUGUUUUUGAGGUACUGUGUAUUUGCAGAAGUUUAAGCAGAAGGGUUUUGUUUCUAUUGUAAGUUAGGUUCUAAAAGUGUAUAAUCUGAUACUCUAUGGAAUUCUCGGGUGCCAA | 0.618
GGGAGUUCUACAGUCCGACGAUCUGGCGUGAAGUAAUGGCAGUAGAAACCCAUGGACUUCUCUUGUUCUUUCUAUCGCUGUGGAUAAGAGAAUCAGCUACUGUGUUAUUCCUUAUCUGAGCCAAACCCCUUAGUGGAAUUCUCGGGUGCCAA | 0.426
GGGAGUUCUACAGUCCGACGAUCACUAGUAAGAUCAGAUUUUUGGGUCAUGUCUGUUGUAUUUUCAGUAAUGUGAUUUCAGAUGGUCAUCUGGAUUCUCCCACUUCUCUACUCCAUUAUUUCUCUACUUUUCCUGGAAUUCUCGGGUGCCAA | 0.742

Series 3
Target: Phosphate system positive regulatory protein PHO4, full length, GST-tagged (PHO4, Saccharomyces cerevisiae, UniProt P07270, residues 1-312)
Method: competition protein-binding microarray
Form: double-stranded DNA, one strand shown
Matrix: in vitro
Tested at: 2 µM
Notes: whole 60-bp probe, lowest competitor level
Added: Cbf1 competitor, 0.05 µM
Reading: higher = stronger binding
Target sequence (chain): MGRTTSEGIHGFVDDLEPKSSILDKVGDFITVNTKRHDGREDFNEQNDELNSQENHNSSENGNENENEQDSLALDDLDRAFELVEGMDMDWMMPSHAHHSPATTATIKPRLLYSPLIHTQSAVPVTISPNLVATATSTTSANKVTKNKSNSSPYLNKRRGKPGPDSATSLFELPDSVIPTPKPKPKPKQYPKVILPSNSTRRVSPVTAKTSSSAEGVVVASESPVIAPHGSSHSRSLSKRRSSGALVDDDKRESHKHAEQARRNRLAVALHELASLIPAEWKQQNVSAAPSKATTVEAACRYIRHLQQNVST
Strand | fluorescence intensity [a.u.]
TGCGCAACAACTTGGATAGTGGGTGTATGTCTAGAAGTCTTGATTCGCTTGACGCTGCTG | 4640
ATATATAAAGTGCGTAATGTGCGTACTAAAAAAGCTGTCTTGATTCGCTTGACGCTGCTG | 5690
CGGGCTGCCCCGGGTCACGTGACTCGGACACCGCCCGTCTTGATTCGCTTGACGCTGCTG | 10700
TCGGTGCGATTATTCTTCGTGCTTTAACAAGATGAGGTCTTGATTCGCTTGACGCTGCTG | 6710
CCAAATAAAAGAATGTTCGTGCAAAAAGTTGCAAAAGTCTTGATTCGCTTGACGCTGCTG | 5960
GAACCATTGTCTTTGCACGTTGACACCTATGGTACTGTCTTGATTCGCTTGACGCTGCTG | 10700
CTCTTCCTCAAGCGTCACCTGATCTCTTCTTTCCCAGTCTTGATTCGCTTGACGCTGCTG | 3620
CAAAAGTATCTTGACAACGTGGTCGAAATTGAGTAAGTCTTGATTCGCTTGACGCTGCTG | 12600
CTGGGCCCGGGACCCCACGTGGGACGCGCGAGGACCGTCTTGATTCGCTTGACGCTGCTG | 16500
TAGAGGAAAGAAAGAAACGTGGGTAAAACAGGGGCCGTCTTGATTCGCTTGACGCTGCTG | 11900
CTTCTGTAAATTTGCGGAGTGGGTGGACGCGCCCCGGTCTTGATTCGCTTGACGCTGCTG | 4370
CTTCTGTAAATTTGCCCGGTGGGTGGACGCGCCCCGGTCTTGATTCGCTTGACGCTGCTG | 3730
TACTTCCGTCGTTTGCACGTTGGCCAGAATGTCTCTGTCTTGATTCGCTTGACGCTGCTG | 12000
CATTGGCAGAACCCGATCGTGGGACAGAACACCAACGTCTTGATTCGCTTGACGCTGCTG | 5480
CCCGTTCGCTAACCAAGCGTGGGACAAGAGTTTAGGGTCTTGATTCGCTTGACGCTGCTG | 7290
CTAACGAAGGTTTTTCACGTGTCATACAAGCCAAGTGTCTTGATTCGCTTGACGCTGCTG | 12700
GTAAAGGTAAACCATCACGTGCTTTCGAAGATAAATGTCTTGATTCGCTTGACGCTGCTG | 14400
CCACTACAAAACTTCCACGTTAGAAAGGTTAAGTTAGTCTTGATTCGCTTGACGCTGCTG | 6110

Series 4
Target: Ras GTPase-activating protein-binding protein 1, full length (G3BP1, Homo sapiens, UniProt Q13283)
Sequence of UniProt Q13283 (whole entry, looked up): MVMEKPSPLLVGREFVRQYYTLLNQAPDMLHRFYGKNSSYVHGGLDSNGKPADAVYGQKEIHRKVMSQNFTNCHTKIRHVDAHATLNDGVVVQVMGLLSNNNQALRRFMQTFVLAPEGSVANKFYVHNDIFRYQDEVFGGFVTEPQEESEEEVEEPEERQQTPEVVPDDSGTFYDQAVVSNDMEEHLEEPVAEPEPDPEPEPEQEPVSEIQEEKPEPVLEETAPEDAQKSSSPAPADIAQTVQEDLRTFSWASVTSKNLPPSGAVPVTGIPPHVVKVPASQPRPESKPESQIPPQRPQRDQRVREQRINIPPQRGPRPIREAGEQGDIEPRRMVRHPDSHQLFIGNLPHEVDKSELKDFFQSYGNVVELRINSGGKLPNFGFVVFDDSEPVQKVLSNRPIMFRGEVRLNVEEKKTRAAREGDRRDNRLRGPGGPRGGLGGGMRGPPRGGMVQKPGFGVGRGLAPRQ
Method: RNA Bind-n-Seq
Form: RNA
Matrix: in vitro
Tested at: 200 nM
Notes: whole 134-nt RNA, ends assumed
Added: 150 mM LiCl
Relative to: input library
Reading: higher = stronger binding
All molecules: 7-deaza-guanosine replaces G
Strand | log2 enrichment
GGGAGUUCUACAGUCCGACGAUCUAACUUUAGAGGAGGACCUGAUGGAUAUGGCAGUGGACGUGGAUUUGGGGAUGGCUAUAAUGGGUAUGGAGGAGGACCUGGAGGUGGCAAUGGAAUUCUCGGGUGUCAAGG | -0.61
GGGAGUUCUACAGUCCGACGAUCCAAGUCCUGUGCUACACAUCGUAUGUACCGAAUCGGAAAGGGAAAGGGGAAAGGGAAAGUAUUAUGUUACGCCGUUCGGAUCUGCACUUCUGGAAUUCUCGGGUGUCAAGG | -0.201
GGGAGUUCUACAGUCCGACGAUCCAAGUCCUGUGCUACACAUCGUAUGUACCGAAUCGGAAAGGAAAGGUUUUUUUGGAAAGUAUUAUGUUACGCCGUUCGGAUCUGCACUUCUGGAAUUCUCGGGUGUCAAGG | -0.801
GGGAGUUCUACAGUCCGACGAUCUGGAUCAAGAGGAAGUAAAAAGAAUUACCAGUCACAGGCUGACAUUCCCAUUCGGUCUCCCUUUGGUAUUGUGAAAGCAUCCUGGCUACCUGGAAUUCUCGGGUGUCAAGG | 0.45
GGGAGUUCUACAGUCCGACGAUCGUCCUGUGCUACACAUCGUAUGUACCGAAUCGGGAAAAAAAGGGUUUUUGGGAAAGGGAAAGUAUUAUGUUACGCCGUUCGGAUCUGCACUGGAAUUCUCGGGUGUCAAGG | -1.48
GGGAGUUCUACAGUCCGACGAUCUGUGCUACACAUCGUAUGUACCGAAUCGGGGCCCCCCCGGGCCCCCCCGGGGCCCCCCCGGGAAAGUAUUAUGUUACGCCGUUCGGAUCUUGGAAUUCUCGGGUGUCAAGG | -0.286
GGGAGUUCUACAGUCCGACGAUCUCCUCAAGUCCUGUGCUACACAUCGUAUGUACCGAAUCGGUGGAGGUUUGGAAAGUAUUAUGUUACGCCGUUCGGAUCUGCACUUCCAGCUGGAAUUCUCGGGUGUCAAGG | -0.933
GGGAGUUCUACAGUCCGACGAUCCCUGUGCUACACAUCGUAUGUACCGAAUCGGAAAAAAAGGGGAAAAAAAGGGAAAAAAAGGAAAGUAUUAUGUUACGCCGUUCGGAUCUGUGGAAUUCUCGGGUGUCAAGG | 0.0545
